Experimental data collected from several papers.
Parts stem from different laboratories: compare values within a part only.

Series 1 — method: protein binding microarray; molecule type: double-stranded DNA, one strand shown; sample: in vitro; tested at: not given; relative to: not given; reading: higher = stronger binding
Target: Histone acetyltransferase KAT6A, winged helix 2, GST fusion (KAT6A, Homo sapiens, UniProt Q92794, residues 85-181)
Notes: 8-mer, flanks averaged, mean of 2 arrays, mostly near background
Target sequence (chain): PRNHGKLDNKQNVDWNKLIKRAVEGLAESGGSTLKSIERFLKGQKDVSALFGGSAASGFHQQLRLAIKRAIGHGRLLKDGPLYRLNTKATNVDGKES
| Oligonucleotide | E-score |
| --- | --- |
| ACGCATCA | 0.0528 |
| AAATCATA | 0.0045 |
| AGAGATAG | 0.0822 |
| CCGTCGCC | 0.201 |
| CGTAATAC | 0.0199 |
| AAAAAGTT | -0.0352 |
| ACTTCACC | -0.0141 |
| CCCCGGAG | 0.231 |
| AGGGGCAA | 0.054 |
| CCCCCCTC | 0.076 |
| ACCTAGTG | 0.103 |
| CTCTGTCA | 0.0128 |
| CTGTTACC | -0.17 |
| GTCATCAC | -0.0853 |
| CCTGACGA | 0.145 |
| ATTAGTTG | 0.068 |
| ACTCAAGC | -0.0695 |
| AGTGTAAC | 0.00274 |
| CATTGACC | -0.105 |
| ATCAAGAT | 0.0311 |
| ATTTCGCC | 0.106 |
| CAAGGCAC | 0.064 |
| GGACTAGA | -0.0676 |
| AGCGTTCG | -0.0876 |
| CAGTCTGA | -0.076 |

Series 2 — method: RNA Bind-n-Seq; molecule type: RNA; sample: in vitro; tested at: 200 nM; notes: whole 134-nt RNA, ends assumed; together with: 150 mM LiCl; relative to: input library; reading: higher = stronger binding; all molecules: 7-deaza-guanosine replaces G
Target: Fragile X messenger ribonucleoprotein 1, C-terminal low-complexity region (Fmr1, Mus musculus, UniProt P35922)
All sequences stand within: GGGAGUUCUACAGUCCGACGAUC … UGGAAUUCUCGGGUGUCAAGG
| Oligonucleotide | log2 enrichment |
| --- | --- |
| CUGUGCUACACAUCGUAUGUACCGAAUCGGUUUUUUUGGGUUUUUUUGGGGUUUUUUUGGGAAAGUAUUAUGUUACGCCGUUCGGAUCUG | 0.667 |
| AAGUCCUGUGCUACACAUCGUAUGUACCGAAUCGGGUUUUGGUUUUGGGUUUUGGGAAAGUAUUAUGUUACGCCGUUCGGAUCUGCACUU | -1.85 |
| UGUGAGAUUAAACUUGCCCCCAAACGAUCUCGUUUGGAGACUAGAGCUGGAGAAGAAGAUGAAGGAGAAGAGGAUUCUGAUUCUGAUUAU | -1.47 |
| GCAGGAAGUAAAAACAAAUGGAAAUGCUUCGGAUAGUGGCAGGGGUGGGGGUUGCUAAGGAAAGGGUGGGAUGGGAGUGGGUUAAGAGUU | 1.67 |
| UGUAGAAAAGGCACUGGACUAACACUUGGCUGUAUCUUGUAACAGGCAUGUUAUGUUACCCAGAGAACUUUCCAAACAAGUACCUAAAAC | 0.689 |
| CUGUGCUACACAUCGUAUGUACCGAAUCAAACCCCCCCAAAUUUUUUUAAAUUUUUUUAAAAAAGUAUUAUGUUACGCCGUUCGGAUCUG | 1.31 |
| UUCCUCAAGUCCUGUGCUACACAUCGUAUGUACCGAAUCGGCGGCGGCGGGAAAGUAUUAUGUUACGCCGUUCGGAUCUGCACUUCCAGC | 1.37 |
| UACAUUCUUUACCCCUUGUUUUAAUUUGAACCCCACCAUAUGGAUUUUUUUCCUUAAGAAAAUCUCCUUUUAGGAGAUCAUGGUGUCACA | 1.27 |
| UUCCAUUGUGAACGUGCCUGGUGAGUCUACUCUUCGCCGAGAUUUCCUGAGACUGCAGCAGGAGAACAAGGAACGUUCCGAGGCUCUUCG | -1.38 |
| AGUCCUGUGCUACACAUCGUAUGUACCGAAUCGGGGUGGGGAAAGGGGAAAAAGGGGAAAGUAUUAUGUUACGCCGUUCGGAUCUGCACU | 0.124 |
| AAGUCCUGUGCUACACAUCGUAUGUACCGAAUCGGGUUUGGGAAAAAAAGGGAGGGAAAGUAUUAUGUUACGCCGUUCGGAUCUGCACUU | -0.808 |

Series 3 — method: universal PBM; molecule type: double-stranded DNA, one strand shown; sample: in vitro; tested at: 600 nM; reading: higher = stronger binding
Target: Sal-like protein 4, full length isoform A (SALL4, Homo sapiens, UniProt Q9UJQ4, residues 1-1053)
Chain of UniProt Q9UJQ4 (whole entry, looked up): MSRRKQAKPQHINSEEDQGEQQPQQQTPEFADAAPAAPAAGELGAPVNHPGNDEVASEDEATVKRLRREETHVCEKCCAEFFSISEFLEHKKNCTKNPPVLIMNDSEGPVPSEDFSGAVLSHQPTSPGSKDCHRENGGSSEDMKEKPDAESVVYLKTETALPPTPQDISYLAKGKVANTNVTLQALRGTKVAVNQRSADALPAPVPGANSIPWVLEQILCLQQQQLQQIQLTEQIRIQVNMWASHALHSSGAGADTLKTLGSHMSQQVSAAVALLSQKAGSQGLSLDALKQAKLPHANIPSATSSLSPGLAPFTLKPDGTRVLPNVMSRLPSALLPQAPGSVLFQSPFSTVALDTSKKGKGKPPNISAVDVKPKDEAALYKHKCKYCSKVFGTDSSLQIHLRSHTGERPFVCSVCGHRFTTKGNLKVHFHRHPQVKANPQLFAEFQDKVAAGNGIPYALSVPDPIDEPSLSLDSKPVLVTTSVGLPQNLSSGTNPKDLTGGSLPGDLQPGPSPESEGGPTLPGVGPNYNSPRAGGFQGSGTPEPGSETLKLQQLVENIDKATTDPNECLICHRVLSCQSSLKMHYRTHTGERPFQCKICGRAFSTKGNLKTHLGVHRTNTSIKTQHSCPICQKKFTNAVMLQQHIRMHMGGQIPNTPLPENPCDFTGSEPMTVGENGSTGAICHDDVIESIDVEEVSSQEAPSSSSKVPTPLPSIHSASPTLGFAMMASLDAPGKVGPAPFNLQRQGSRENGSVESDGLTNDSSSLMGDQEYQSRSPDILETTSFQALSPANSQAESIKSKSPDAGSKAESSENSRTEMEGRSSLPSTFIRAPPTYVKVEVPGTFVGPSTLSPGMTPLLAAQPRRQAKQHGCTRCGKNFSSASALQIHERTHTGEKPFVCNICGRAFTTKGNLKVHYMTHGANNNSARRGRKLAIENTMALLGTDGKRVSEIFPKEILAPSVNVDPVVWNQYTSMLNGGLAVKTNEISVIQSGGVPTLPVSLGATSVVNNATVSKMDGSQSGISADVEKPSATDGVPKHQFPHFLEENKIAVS
Notes: 8-mer, flanks averaged, mean of replicates
| Oligonucleotide | E-score |
| --- | --- |
| CGTGGCGC | -0.282 |
| CTGCCAAG | -0.113 |
| CAGAATAA | 0.22 |
| ATCGACCA | -0.133 |
| GACTCATC | -0.082 |
| GATCGCGA | 0.0282 |
| GCTTCCCC | -0.267 |
| CCCCAGGC | -0.333 |
| CACAACCG | -0.023 |
| ATTAACTA | 0.276 |
| AGGCAAGC | -0.181 |
| CGAGACTC | -0.13 |
| GTCTTGGA | -0.023 |
| GGAAGGCC | -0.268 |
| AAGGCAAT | 0.161 |
| GTGTGAAC | -0.0892 |
| TCAATGGA | 0.0626 |

Series 4 — method: RNA Bind-n-Seq; molecule type: RNA; sample: in vitro; tested at: 365 nM; relative to: no-protein control; reading: higher = stronger binding
Target: RNA binding protein fox-1 homolog 2, RRM domain, GST-SBP tag (RBFOX2, Homo sapiens, UniProt O43251-10, residues 100-194)
Notes: natural RNA segment, single round, ends assumed
All sequences stand within: GGGAGUUCUACAGUCCGACGAUC … UGGAAUUCUCGGGUGCCAA
Construct (chain): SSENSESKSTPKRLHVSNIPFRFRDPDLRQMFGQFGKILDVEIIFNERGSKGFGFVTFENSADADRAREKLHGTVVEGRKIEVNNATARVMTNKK
| Oligonucleotide | RBNS enrichment (R) |
| --- | --- |
| ACAAACACAUUGGCCUCAAGGCUCCUUAGAAUCCCAGUUCCAGCUUCCUAAAAUAGACAGUGGGUAUCGGGCAGCAGUCACUGGGGCUCAAGGGCAGUGAGCAAGAGAAA | 0.734 |
| CCCCAUUUUACCAGAACCAAACCUCAACACAGCGAAGCUGUACUGUCUUUGUGUGGCAAAGAUGUUCCCUUGUAGGCCCCUUUCAGGUAACCGUCUUCACAAUGUAUUUU | 0.3 |
| ACUGGUAUUUGGAAUUUUUUUUCCUUUAAUCUUUGGUUUAAAAACAUCUUAAAAUCACUUAUAUACAAUCAUUAAAAGAGUGGUAAUUUUAUAAAUGCUUAUUUAUGUUA | 0.479 |
| AUCUGCACCGCCGGCCAGCUGGGAUCUGACUGCACGUGGCUUCUGAUGAAUCUUGCGUUUUUUACAAAUUGGAGCAGGGACAGAUCAUAGAUUUCUGAUUUUAUGUAAAA | 1.21 |
| CUCGGCUUGUCCUUGUCCCAUGUGUUUGUAGACACACAUGCAUACUGUCCAAAGAUUAGGGUUGGUGGUGGCAGUGCAGCAGGGGAGGGACAAACAACCAAGCUAUGGGU | 1.06 |
| AUGUAAAAAUUGAUAUAGUUGUGAUACAGAGUAUAUUUCCCUUCAGAUAACAUACCACAACACAAUGGAUAAUGUAUUUUAGAUAUAUUCUCUAAUAAAAUUGAGAACUC | 0.417 |
| AGCCAUGAGAGUGAGGACUUUCCGCGCCCAUUGGUGACCCUUCCAGGCAGACAGCCUCAGCAACGCCCCUGGUGGACAGGAUGGUUCGGCAAAGCAGCCUGAGUUAUUUU | 0.205 |
| UCUUGGUGGCUUUGAGGACAUUCUGGAAAAUGCCACUGACCAGUGUGAACAAAAGGGAUGUGUUAUGGGGCUGGAGGUGUGAUUAGGUAGGAGGGAAACUGUUGGACCGA | 1.38 |
| GAUACAUCUCAGUGACCCAGGGUGGGAGGGCUAUCAGGGUGCAUGGCCCGGGACACGGGCACUCUUCAUGACCCCUCCCCCACCUGGGUUCUUCCUGUGUGGUCCAGAAC | 20.5 |
| CAGCAUGUGUCCUGAAGACGUUCAUAGAUUUAUAGGAAAUAAAGCCAAAUGUAGCUCAUACCUCUUUAUAAAACUAAACUGUUGUUAGAUAAAAUGAGAAGAGACCAUUC | 9.15 |
| AUCAGUGCAUGACGUUUAAGGCCACGUAUAGUCCUAGCUGACGCCAAUAAUAAAAAACAAGAAACCAAGUGGGCUGGUAUUCUCUCUAUGCAAAAUGUCUGUUUUAGUUG | 0.993 |
| CUUGUUCAGUGUGAUGGAAUAACAAGAUGAAUUAUUGGUGAUUUUUCAUAAUCGAUGUGGUCUACUAAGAAAGAUAACAAUUUGUGCUAAAAUGCCCAUGUUUACCUGUA | 0.801 |

Series 5 — method: RNA Bind-n-Seq; molecule type: RNA; sample: in vitro; tested at: not given; relative to: input RNA pool; reading: higher = stronger binding
Target: RING finger protein unkempt homolog, zinc fingers 1-6, GST-SBP tag (UNK, Homo sapiens, UniProt Q9C0B0, residues 30-357)
Chain of UniProt Q9C0B0 (30-357, looked up): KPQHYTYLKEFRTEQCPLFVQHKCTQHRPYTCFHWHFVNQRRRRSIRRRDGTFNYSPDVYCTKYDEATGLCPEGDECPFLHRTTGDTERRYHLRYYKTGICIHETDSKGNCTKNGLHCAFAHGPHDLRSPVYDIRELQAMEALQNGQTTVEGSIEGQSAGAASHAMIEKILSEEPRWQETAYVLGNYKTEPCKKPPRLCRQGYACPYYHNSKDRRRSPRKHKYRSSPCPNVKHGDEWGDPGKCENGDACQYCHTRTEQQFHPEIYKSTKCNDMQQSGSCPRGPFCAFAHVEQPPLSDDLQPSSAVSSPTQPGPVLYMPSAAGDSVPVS
Notes: RNA with constant flanks, human-mouse chimeric sites, ends assumed
All sequences stand within: GGGAGUUCUACAGUCCGACGAUC … CAACAGAGGAUUGAGCAUCA
| Oligonucleotide | bound/input enrichment [ratio] |
| --- | --- |
| CGCUGGCCCAAGCUGAUGGACUCUGAUGGCCUCCAUCAAGGUAUUAUGUUUGCCUUCUCUUAGUCCCUGUUUUCGGGAUGUUAUGAAUCUCAGUACUGUGGUUUGAAAGCACCAGCUUUG | 0.142 |
| CUGAAAAACACAGAUAUCAAAGUUGUUGAUUUUGGAAGUGCAACGUAUGAUGAUGAACAUCACAGUACUUUGGUGUCCACAAGGCACUACAGAGCUCCCGAGGUCAUUUUGGCUUUAGGU | 0.245 |
| UUAAACACCAAGCUGAUGGACUCUGAUGGCCUCCAUCAAGGUAUUAUGUGUGCCUUCUCUUAGUCCCUGUUUUCGGGAUGUUAUGAAUCUCAGUACUGUGGUUUGAAAGCACCAGCUUUG | 0.143 |
| CCCACGCCUCCUCUCCCACAGGCCCAAGAUAUAACCCACCAGUGCCUUUUGUCUUCCUGUCAGCUCUAAUCAAUCAUCCUGUCCUCUCACGCCCACACCAAGUGCCCAAAGUGGGGAGGG | 0.645 |
| GUAUACGGUUAUCGAGGAAAGGACUGUAGAGCUAAUGUAUACCUGCUUCCCACAGGGAAAAUAGUUUAUUUUAUCGCCUCAGUGGUAGUCCUGUUUAAUUAUGAGGAGAGGACUCAGCGA | 21.7 |
| CACGUGUCUGCAGUACUUGAUGUGGACUACUCUCCCACUGGGAAGGAAUUUGUGUCUGCCAGCUUUGAUAAGUCUAUUAGAAUCUUUCCUGUAGACAAGAGCCGAAGCAGGGAAGUGUAU | 0.466 |
| ACUCAGAGAUCCACCUCCCAAAGUGCUGGGAGUAAAGGUGUGGCCACCACACCUAACUUGAUGGAUAUUUUAUAAAGCUCUUUUAUGUCUUCCUGUUCGUCCAGGGAAGAAAGAUUUGUU | 0.258 |
| UCCCUGUUGCUGAAUAAAUGGCUUGUAAAGAAGUUUUUCCAAGCUGUAACCCAUGCUGUUAUUAUAGUUGCUGCAAAAUGUUCUUCCUGAUAUUGAUGUUUGUUUACAACUGAAGGUCUC | 0.335 |
| AGUACUGACUCAGGCGGAUUUUGCAACACCAAGCUCACAGCAGCAGCAUCUUAGUCACAGUAGGGUAGUUUUGGGGCUCUGUGGCCAGGGUUUUAUUCACAUGCAGGUUUGGAAAAUGUA | 2.03 |
| GGCUGCUGGUGACUGUCCUGGAGUGGCCGUGUCACCGCCGGAACCUGGGCCAGACUAAUUUUAGAAAAUGCCAAGUAGGAAGUUUGUUGAGGGUGAAGUGGUCAGAGGCCGAUGGCCUGG | 1.64 |
| CUGGCACUCUAUCAGAUAUAUUAAUUUUUAAAUGUAGAUGUAAUUUUAAAAAUGAAUGGCUACUUUACACGUUUAACUAGGGUUUUACUAUAUAUGUGUACAUAUGUAUAUAUAUAUAUA | 8.55 |

Repeated from above (series 1):
| Oligonucleotide | E-score |
| --- | --- |
| AGAGATAG | 0.0822 |
| CCGTCGCC | 0.201 |
| CGTAATAC | 0.0199 |
| AAAAAGTT | -0.0352 |
| ACTTCACC | -0.0141 |
| CCCCGGAG | 0.231 |
| AGGGGCAA | 0.054 |
| CCCCCCTC | 0.076 |
